Measurements of several laboratories.
Lines come from different studies, so protocols differ. Numbers after ± are the reported error.
Target: Cytochrome P450 2C9 (CYP2C9, Homo sapiens, UniProt P11712)

For `CC(=O)c1cccc(-c2nc(Nc3ccccc3)nc(N3CCOCC3)n2)c1`, the inhibition was 98% (10 µM).
`CN[C@@H]1[C@H](O)[C@H](NC)[C@H]2O[C@]3(O)[C@H](O[C@@H]2[C@H]1O)O[C@H](C)C[C@H]3NC(=O)Cc1cc(Cl)ccn1` has an inhibition of 0% (10 µM).
For `CCN(CC)CCOc1ccc(-c2nnn(Cc3ccc(OC)cc3)c2N)cc1`, the IC50 was > 50 µM (inhibitor).
With `Cc1cccc2c1C1(CCN(C(=O)c3ccc4[nH]ncc4c3)CC1)C(=O)N2CC(=O)NCC(F)(F)F` the IC50 was 8.2 µM (enzyme activity, inhibitor).
`Cc1cc(-c2ccc3ccccc3c2)nnc1NCCN1CCN(C)CC1` has a remaining compound of 87% (substrate; recombinant enzyme; 100 nM, 1 h).
`O=C(CN1C(=O)C2(CCN(C(=O)c3cnc4[nH]ncc4c3)CC2)c2c(Br)cccc21)NCC(F)(F)F` has an IC50 of 14 µM (enzyme activity, inhibitor).
`C[C@@H](c1ccc2nccn2c1)n1nnc2nc(O)c(-c3cnn(C)c3)nc21` has an IC50 of 11 µM (enzyme activity, inhibitor; human, liver microsomes).
The IC50 of `O=C(CN1C(=O)C2(CCN(C(=O)c3ccc4[nH]ncc4c3)CC2)c2c(Br)cccc21)NCC(F)(F)F` is reported as 3.9 µM (enzyme activity, inhibitor).
`C[C@@H](c1ccc2nccn2c1)n1nnc2ncc(-c3cn[nH]c3)nc21` gave a time-dependent inhibition of < 20% (human liver microsomes; 10 and 50 µM, 30 min preincubation, together with: ± NADPH).
